Measurements gathered from unrelated publications.
Parts stem from different laboratories: compare values within a part only. Substitutions count along the parent as printed.

Block 1 — target: UBE2H UBC core domain (UniProt P62256); method: yeast two-hybrid; medium: yeast; notes: mostly zero background; relative to: not given; direction: higher = stronger interaction; endpoint: lacZ reporter activity
Chain of UniProt P62256 (whole entry, looked up): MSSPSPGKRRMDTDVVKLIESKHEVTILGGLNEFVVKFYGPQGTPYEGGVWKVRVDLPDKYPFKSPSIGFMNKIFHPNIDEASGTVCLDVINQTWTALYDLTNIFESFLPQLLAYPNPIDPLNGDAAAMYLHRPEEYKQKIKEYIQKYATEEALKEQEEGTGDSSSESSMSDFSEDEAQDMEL
B1: TRIM40 RING domain (UniProt Q6P9F5); chain LQKDNQEEGVCPICQESLKEAVSTNCGHLFCRVCLTQHVEKASASGVFCCPLCRKPCSEEVLG
B2: TRIM24 RING domain (UniProt O15164); chain EAARLNLLDTCAVCHQNIQSRAPKLLPCLHSFCQRCLPAPQRYLMLPAPMLGSAETPPPVPAPGSPVSGSSPFATQVGVIRCPVCSQECAERHII
B3: TRIM5 RING domain (UniProt Q9C035); chain LREVKLSPEGQKVDHCARHGEKLLLFCQEDGKVICWLCERSQEHRGHHTFLTEEVAREYQVKL
B4: MKRN1 RING domain (UniProt Q9UHC7); chain FAVQRSKDMVCGICMEVVYEKANPSERRFGILSNCNHTYCLKCIRKWRSAKQFESKIIKSCPECRITSNFVIPSE
B1 (TRIM40 RING domain): 0
B2 (TRIM24 RING domain): 0
MPIRALCTICSDFFDHSRDVAAIHCGHTFHLQCLIQWFETAPSRTCPQCRIQVGKRTIIN (TRAIP RING domain (UniProt Q9BWF2)): 0
B3 (TRIM5 RING domain): 0
B4 (MKRN1 RING domain): 0

Block 2 — method: EMSA with sequencing; form: double-stranded DNA, one strand shown; medium: in vitro; concentration: 10 and 20 nM; relative to: negative control set to 0; direction: higher = stronger binding; endpoint: normalised bound fraction
Target: Hepatocyte nuclear factor 3-alpha (Foxa1, Mus musculus, UniProt P35582, residues 1-468, full length assumed)
Chain of UniProt P35582 (whole entry, looked up): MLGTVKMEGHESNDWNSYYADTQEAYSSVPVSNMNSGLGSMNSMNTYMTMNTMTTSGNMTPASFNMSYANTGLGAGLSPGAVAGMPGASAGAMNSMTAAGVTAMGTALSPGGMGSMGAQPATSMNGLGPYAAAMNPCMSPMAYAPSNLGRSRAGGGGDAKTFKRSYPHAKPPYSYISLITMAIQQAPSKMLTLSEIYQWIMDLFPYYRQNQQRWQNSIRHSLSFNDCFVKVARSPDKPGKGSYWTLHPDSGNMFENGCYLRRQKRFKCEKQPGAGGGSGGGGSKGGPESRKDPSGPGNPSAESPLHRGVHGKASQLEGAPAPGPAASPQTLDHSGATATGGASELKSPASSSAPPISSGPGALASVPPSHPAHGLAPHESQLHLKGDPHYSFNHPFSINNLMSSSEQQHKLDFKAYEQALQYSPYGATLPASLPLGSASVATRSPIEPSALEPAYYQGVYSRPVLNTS
Notes: whole designed probe, mean of two concentrations, ends assumed
All sequences stand within: GTGAGCGGTGCCCATTGATGGGGAAC … TTTCACTGGGATCGTGGGGAC
GGCACCTGCCCTTCTGGCAACTTCTTGGAAACAGTTGGCAGTGTTTGCTTCCTGACTCCTAGCAGGCCGCTGGGGTGCAGCTATTGTGTTTAAGTAATCTGGCCACTCGCCTATTCAGCTTGGCAGCTTGATAGATGCCTACGCCTAGATCTTGTCAAATCGGTTTGTGGTTGAGTGGCTGCCAGGCCTAGAG: 0.000562 ratio
ATCTTCCCCCTCTTCCTTGCCCCACCAGCTCACCTTCCCGGGTTATTTGCAGATAGGAAAATAAATAAAGCCGGCATTCGTTAACCCTCTTCTGGCGCAAACTGCTGTTTGCTCTGGATGAATCATGGTCCTTTGGCGACGCCAGCCTGGGACGGAGCAAAGCACCGTGTCAGGGCCATGATCCGGGGTGGCC: 0.345 ratio
GAGCTCTTCCTTTCCCTTACTTCCTTCTCAGGTTGTAGAATACAAGCTCAGCACTTTCCTGGCTTCCCTCTATTGCTCTGGGAAAGATAGTAAGTAAATAGTGTCTGTTGCCAAAGGGAGAAGAATAAACATAGGCTGGATCACCAAATGGTGCTGCATTTTATTTGTATGGTGTCAGAGACACTGGCTGCTT: 0.435 ratio
AGTTTATTATTTGCTTAAAAACAAATTAATATAATTGCATTGCTTATAAAATGTAACCTTACTTGACCGCTAAAGATGACCTAGTTCTTTTTTCAGATTACTTTGTTTTGAATTTACTGATAATATGAACCTTGGAAAATCCATCAATACAAAGAGTTTCTGTTTCTATTGATTTGTCAGAGAGGTGTTCTGA: 0.248 ratio
TGAGCCCTTGAATTTCCAATTTTCCCTTTGTCTCCCATTCTTAATATTTCTCAAAAAAATTCAATTATTCCCTCTCTTAAAATAAACTCAATGTAATCTGGGTATATAAACTATGGATCACAATTGAATGAAACATTCTGCAAATATTGAAAATTATCTGTCTAATCTATATATTGATGATAGGAAATGTATT: 0.0655 ratio

Block 3 — method: protein-binding microarray; form: double-stranded DNA, one strand shown; medium: in vitro; concentration: 940 nM top; notes: 60-bp whole probe; with: salmon DNA 0.4 mg/ml; relative to: random background probes; direction: higher = stronger binding; endpoint: fitted relative affinity; all sequences stand within: GCCTAGCAC … GTCTTGATTCGCTTGACGCTGCTG
Target: Interferon regulatory factor 5, full length, phosphomimetic (IRF5, Homo sapiens, UniProt Q13568-2, residues 1-514, S451D/S453D/S456D/S462D)
GACGATATCGGGTATCCAGACGTGCTA: 0.127 z-score
GACGGACTGCTTTTCCTTACGTGCTAG: -0.183 z-score
TCAGCTTTCCTTTATGTACTGTGCTAG: 1.04 z-score
TTAGGGATCGGGTTTCGGTTAGTGCTA: 6.08 z-score
TTAGGTTTCGGGACAGGGTTAGTGCTA: 8.73 z-score
GACGATCACAGACTGGAGACGTGCTAG: -0.433 z-score
GACGGTATCGACTATCGGGGCGTGCTA: 5.07 z-score
TTAGGTTGCCTACTGCTTTAGTGCTAG: -0.429 z-score
TTAGGTTACGGGTATCGGTTAGTGCTA: 2.89 z-score
TCATAAAACAACTTTCAAACTGTGCTA: 0.555 z-score
GACGGATTCCTTTCCCTGACGTGCTAG: 0.378 z-score
GACGAACTGAGACGGGAGACGTGCTAG: -0.609 z-score
GACGGACTGGACACTGAGGACGTGCTA: -0.784 z-score
GACGGTTTCGCCACTGGGGACGTGCTA: 5.65 z-score
TTTGGTTTCGGACTGGGTTAGTGCTAG: 10.7 z-score
GACGATTTCGGGTATCGAGAGGTGCTA: 1.63 z-score
GACGGTTTCCTACTGCTTACGTGCTAG: 0.687 z-score
GACGATTTCGCGTATCGAGACGTGCTA: 0.544 z-score
TCACATATGTTTTTCATACTGTGCTAG: 0.439 z-score

Block 4 — method: DHFR PCA, dose-response; medium: yeast; with: (+)-ABA, dose series; direction: lower = more sensitive; endpoint: ABA EC50
Target: ABI1, truncated, D143A, DHFR fusion (Arabidopsis thaliana, UniProt P49597)
Notes: Hill fit, not affinity, not high confidence
Parent: PYL1, truncated, DHFR fusion (Arabidopsis thaliana, UniProt Q8VZS8); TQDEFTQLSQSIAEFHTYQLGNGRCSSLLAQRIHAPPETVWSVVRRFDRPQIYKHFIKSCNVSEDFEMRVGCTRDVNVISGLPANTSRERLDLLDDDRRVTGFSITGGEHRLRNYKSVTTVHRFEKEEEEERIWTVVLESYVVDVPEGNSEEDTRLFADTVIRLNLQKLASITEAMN
E89K: 243 µM
S27P: 65.9 µM
S87P: 10.9 µM
C60P: 350 µM
F15P: 237 µM
Y115P: 0.0201 µM
T120D: 2230 µM
E174N: 27.4 µM
A158C: 0.524 µM
V44G: 4.88 µM
S117P: 0.259 µM
Q19H: 0.586 µM

Block 5 — method: universal PBM; form: double-stranded DNA, one strand shown; medium: in vitro; concentration: 600 nM; direction: higher = stronger binding; endpoint: E-score
Target: Sal-like protein 4, full length isoform A (SALL4, Homo sapiens, UniProt Q9UJQ4, residues 1-1053)
Chain of UniProt Q9UJQ4 (whole entry, looked up): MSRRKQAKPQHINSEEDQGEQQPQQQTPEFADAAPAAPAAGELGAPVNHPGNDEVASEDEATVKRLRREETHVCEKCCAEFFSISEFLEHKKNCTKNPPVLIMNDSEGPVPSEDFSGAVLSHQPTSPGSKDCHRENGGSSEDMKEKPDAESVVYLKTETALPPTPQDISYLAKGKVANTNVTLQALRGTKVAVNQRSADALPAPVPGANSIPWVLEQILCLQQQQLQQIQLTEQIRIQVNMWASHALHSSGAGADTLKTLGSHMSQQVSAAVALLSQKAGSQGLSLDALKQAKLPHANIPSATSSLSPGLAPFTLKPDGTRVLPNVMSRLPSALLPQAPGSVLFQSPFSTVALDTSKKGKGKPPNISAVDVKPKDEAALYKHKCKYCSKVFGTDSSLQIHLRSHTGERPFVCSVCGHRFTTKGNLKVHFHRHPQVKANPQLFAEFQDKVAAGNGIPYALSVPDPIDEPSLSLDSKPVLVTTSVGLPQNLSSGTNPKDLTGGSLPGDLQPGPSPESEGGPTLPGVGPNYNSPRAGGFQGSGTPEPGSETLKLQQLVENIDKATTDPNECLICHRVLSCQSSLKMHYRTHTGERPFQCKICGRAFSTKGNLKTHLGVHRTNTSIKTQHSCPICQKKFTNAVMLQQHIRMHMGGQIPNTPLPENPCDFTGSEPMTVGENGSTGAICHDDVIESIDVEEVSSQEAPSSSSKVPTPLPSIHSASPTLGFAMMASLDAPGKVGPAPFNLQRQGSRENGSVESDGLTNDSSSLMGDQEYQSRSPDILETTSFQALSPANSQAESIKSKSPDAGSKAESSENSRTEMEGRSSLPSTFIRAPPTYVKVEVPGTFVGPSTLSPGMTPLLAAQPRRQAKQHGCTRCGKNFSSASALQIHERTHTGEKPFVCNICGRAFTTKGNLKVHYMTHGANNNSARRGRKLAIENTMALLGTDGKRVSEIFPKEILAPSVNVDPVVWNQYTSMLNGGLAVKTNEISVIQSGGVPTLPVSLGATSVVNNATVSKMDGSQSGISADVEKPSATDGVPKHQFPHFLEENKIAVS
Notes: 8-mer, flanks averaged, mean of replicates
ACTACTGC: -0.107
ATAAGCTA: 0.283
ATAAGTTA: 0.349
CAATGCAA: 0.115
GCCCGCCC: -0.36
CTAAAAGC: -0.216
AATACGTC: 0.0277
CATTCCGC: -0.289
CGAAATTA: 0.271
CGAAAATA: 0.27
CCAGACTA: 0.0066
AGAGTCTG: -0.216
AGCTCGTG: -0.162
GACCGTGC: -0.284
AAGATCAC: -0.0379
CGCCAGCA: -0.269
GCCCGAGC: -0.366
CTGGGAAA: -0.0408
CACCGGTC: -0.36
CTTTCACC: 0.0258
AACCGGCA: -0.299
AGACCACA: -0.111
GGGTCACA: -0.266

A few entries again (block 4):
F15P: 237 µM
Y115P: 0.0201 µM
T120D: 2230 µM
E174N: 27.4 µM
A158C: 0.524 µM
V44G: 4.88 µM
